Experimental data pooled from the literature.
Protocols differ between the studies behind these lines. Several values in a cell are separate wells, animals, samples, runs or records. ± gives the spread as reported. ≈ marks a conversion by molar mass, not a printed value.

Compound | assay | system | conditions | how to read | measurement | result
CCCCCCOC(=O)NC(=N)c1ccc(NCc2nc3cc(C(=O)N(CCC(=O)OCC)c4ccccn4)ccc3n2C)cc1 | – | healthy human | oral, 600 mg single dose, 1.5 to 3 h | relative to: baseline, time-matched | change in QTcI | -5 ms
C#Cc1cccc(Nc2ncnc3cc(OCCOC)c(OCCOC)cc23)c1 | – | NOD/SCID mouse, male, whole blood or plasma | oral, 12.5 mg/kg every 12 h, day 1 | – | terminal half-life | 186 min
COc1ccc(-c2cc(=O)c3cc(OC)c(OC)c(OC)c3o2)cc1OC | – | C57BL/6 mouse, male, plasma | oral, 1% w/w in diet, 6 weeks, orange peel extract diet | relative to: content in orange peel | tissue to peel content ratio | 0.03%
O=C(O)[C@H]1/C(=C/CO)O[C@@H]2CC(=O)N21 | – | rat plasma | 80 ng/mL, three freeze-thaw cycles | – | measured concentration | 83.1 ± 0.8 ng/mL
CC(C)C[C@H](NC(=O)[C@H](CC(C)C)NC(=O)[C@@H](Cc1c[nH]c2ccccc12)NC(=O)[C@H](Cc1ccccc1)NC(=O)[C@@H](NC(=O)[C@@H](N)CCCCN)[C@H](c1ccccc1)c1c[nH]c2ccccc12)C(N)=O | RP-HPLC Jupiter Proteo | – | acetonitrile/water TFA gradient | – | HPLC retention | 55 %B
C[N+]1(CC(=O)OC2CCCCCCCCCCC2)CCCCCC1.[I-] | metabolic stability | human, liver microsomes | 1 µM, pH 7.4 | – | half-life | < 2 min
FC(F)(F)c1cccc(Nc2ncnc3ccccc23)c1 | potentiometric, initial protocol | octanol/water, 0.15 M KCl | neutral species | – | logP | 4.32
CC[C@H](C)[C@@H]1NC(=O)[C@H](Cc2ccc(O)cc2)NC(=O)[C@@H](N)CSSC[C@@H](C(=O)N2CCC[C@H]2C(=O)N[C@@H](CC(C)C)C(=O)NCC(N)=O)NC(=O)[C@H](CC(N)=O)NC(=O)[C@H](CCC(N)=O)NC1=O | microdialysis, radioimmunoassay | knock-out male mice lacking compound, amygdala extracellular fluid | intraperitoneal, 12 µg total, incremental area over baseline | – | AUC above baseline | 89.1 ± 51.3 pg·30 min/sample
C[C@](N)(Cc1ccc(O)c(O)c1)C(=O)O | static gravimetric method | supercritical CO2, 740.3 kg/m3 | 5 h, 333 K, pressure 21 MPa | – | solubility | 250 µg/mL (≈ 1190 µM)
CC(C)=CCC[C@](C)(O[C@@H]1O[C@H](CO)[C@@H](O)[C@H](O)[C@H]1O)[C@H]1CC[C@]2(C)[C@@H]1[C@H](O)C[C@@H]1[C@@]3(C)CC[C@H](O[C@@H]4O[C@H](CO)[C@@H](O)[C@H](O)[C@H]4O[C@@H]4O[C@H](CO)[C@@H](O)[C@H](O)[C@H]4O)C(C)(C)[C@@H]3CC[C@]12C | – | rat, extracted plasma QC samples | 2.0 µg/mL, 24 h, 15 °C, autosampler | – | post-preparative stability accuracy | 96.3 ± 8.5%
COc1cc2c(cc1OC)[C@@H]1Cc3ccc(OC)c(OC)c3CN1CC2 | – | rat plasma QC sample | 640 ng/mL nominal, 24 h, 23 °C, medium QC level storage stability | – | measured concentration | 644 ± 11.6 ng/mL
CS(=O)(=O)Nc1ccc(C(=O)O[C@@H](Cc2c(Cl)c[n+]([O-])cc2Cl)c2ccc(OC(F)F)c(OCC3CC3)c2)cc1OCC1CC1 | – | human, plasma | inhaled, 300 µg once daily, day 7, single-dose dry powder inhaler | – | Cmax | 0.41 ng/mL
Cc1cc(Nc2ncc(Cl)c(Nc3ccccc3S(=O)(=O)C(C)C)n2)c(OC(C)C)cc1C1CCNCC1 | item: unbound drug | human, plasma | oral, 750 mg/day | – | Tss,max | 6 h and 8.1 h
C[C@]12CC[C@@H]3c4ccc(O)cc4CC[C@H]3[C@@H]1C[C@@H](O)[C@@H]2O | GC-MS | breast cancer women on NSAI, serum | vaginal, 0.03 mg, 6 h, day 0 | – | mean serum concentration | 0 ng/mL
CNCc1ccc(-c2[nH]c3cc(F)cc4c3c2CCNC4=O)cc1 | – | human, plasma | oral, 600 mg twice daily, steady state, mean | – | AUC(0-12 h) | 16900 ng·h/mL
CC(C)[C@@H](CS(=O)(=O)C(C)C)N1C(=O)[C@@](C)(CC(=O)O)C[C@H](c2cccc(Cl)c2)[C@H]1c1ccc(Cl)cc1 | – | healthy human | oral, 60 mg single dose, new tablet, fed | – | AUC(0-24) | 1790 ng·h/mL
CC(C)=CCC[C@](C)(O[C@@H]1O[C@H](CO[C@@H]2O[C@H](CO)[C@@H](O)[C@H](O)[C@H]2O)[C@@H](O)[C@H](O)[C@H]1O)[C@H]1CC[C@]2(C)[C@@H]1[C@H](O)C[C@@H]1[C@@]3(C)CC[C@H](O[C@@H]4O[C@H](CO)[C@@H](O)[C@H](O)[C@H]4O[C@@H]4O[C@H](CO)[C@@H](O)[C@H](O)[C@H]4O)C(C)(C)[C@@H]3CC[C@]12C | – | rat, extracted tissue homogenate QC samples | 0.2 µg/mL, 24 h, 15 °C, autosampler | – | post-preparative stability accuracy | 102 ± 4.5%
CC(NC(C)(C)C)C(=O)c1cccc(Cl)c1 (centres unmarked) | dual placental perfusion | fetal circuit perfusate | 150 ng/mL, 4 h | relative to: initial maternal | fetal concentration | 24 ± 3%
COC(=O)N[C@H](C(=O)N[C@@H](Cc1ccccc1)[C@@H](O)CN(Cc1ccc(-c2ccccn2)cc1)NC(=O)[C@@H](NC(=O)OC)C(C)(C)C)C(C)(C)C | population PK model | pregnant women, third trimester | oral, median, together with: with tenofovir | – | Vd/F | 127 L
CCc1c(-c2ccccc2)c(-c2ccccc2)nn1-c1ccccc1-c1cccc(OCC(=O)O)c1 | – | rat, plasma | intravenous, 2 mg/kg | – | Tmax | 4.98 min
CCCC[C@@H]1NC(=O)[C@@H](NC(=O)[C@H](CCC(=O)O)NC(=O)CNC(=O)CN2CCN(CC(=O)O)CCN(CC(=O)O)CCN(CC(=O)O)CC2)CCCCNC(=O)C[C@@H](C(N)=O)NC(=O)[C@H](C(C)C)NC(=O)[C@@H]2CCCN2C(=O)[C@H](CCCNC(=N)N)NC(=O)CNC(=O)[C@H](Cc2c[nH]c3ccccc23)NC(=O)[C@H](CCCNC(=N)N)NC(=O)[C@@H](Cc2ccccc2)NC(=O)[C@H](Cc2c[nH]cn2)NC(=O)[C@H](CCC(=O)O)NC1=O [indium-111 labelled] | – | normal C57 mice, pancreas | intravenous, 0.037 MBq, 4 h | – | tissue uptake | 0.04 ± 0.03 %ID/g
Cc1nc2cccc(OCC(C)(C)C(=O)NC(C)C)c2c(N)c1C(=O)O | – | female Sprague-Dawley rat, plasma | oral, 30 mg/kg | – | AUC(0-t) | 107 ng·h/mL

Compound | assay | system | conditions | how to read | measurement | result
CCCC[C@H](NC(C)=O)C(=O)N[C@H]1CCC(=O)NC[C@@H](C(=O)N[C@@H](Cc2c[nH]c3ccccc23)C(N)=O)NC(=O)[C@H](CCCNC(=N)N)NC(=O)[C@@H](Cc2ccccc2)NC(=O)[C@H](Cc2c[nH]cn2)NC1=O | – | female rat, plasma | subcutaneous, 1 mg/kg/day, multiple doses, once daily | – | AUC(0-t) | 818 ng·h/mL
O=C(CCCCCCC(=O)Nc1ccccc1)NO | – | patients, serum | oral, 400 mg, cycle -1, alone | – | AUC(0-7 h) | 8.06 µM·h
C[C@H](N)C(=O)N[C@H](Cc1c[nH]c2ccccc12)C(=O)N[C@@H](Cc1ccccc1)C(=O)N[C@H](C(=O)N1CCC(C(N)=O)CC1)[C@H](c1ccccc1)c1c[nH]c2ccccc12 | RP-HPLC Kinetex Biphenyl | – | acetonitrile/water TFA gradient | – | HPLC retention | 45 %B
CCN(CC)CCNC(=O)c1c(C)[nH]c(/C=C2\C(=O)Nc3ccc(F)cc32)c1C | – | human, plasma | oral, 15 mg/m2, day 28 | – | minimum trough plasma concentration | 16.1 ng/mL
COc1ccc(-c2nc(OCC(F)(F)F)nn2-c2ccc(OC)cc2)cc1 [carbon-11 labelled] | PET | rhesus monkey, whole brain | iv, dose not given, baseline | – | peak brain radioactivity | 4.29 SUV
CC(C)C[C@@H]1NC(=O)[C@H](C)N(C)C(=O)[C@H](Cc2ccccc2)NCc2cc(c[nH]2)CNC1=O | – | PAMPA | 100 µM, 17 h, pH 6.4 | – | Papp | 0.0295 ×10⁻⁶ cm/s
Cc1ccc(NC(=O)c2ccc(CN3CCN(C)CC3)cc2)cc1Nc1nccc(-c2cncc(-c3oncc3C)c2)n1 | – | Parkinson's disease patients, plasma | oral, 100 mg once daily, day 1, 7-day dosing, mean | – | dose-normalised Cmax | 41.6 ng/mL/mg
COc1ccc2cc3[n+](cc2c1OC)CCc1cc2c(cc1-3)OCO2 | – | rat plasma QC sample | 32 ng/mL nominal, 15 days, -80 °C, medium QC level storage stability | – | measured concentration | 30.2 ± 1.86 ng/mL
O=S(=O)(c1cccc2cnccc12)N1CCCNCC1 | – | rat sham control, isolated perfused lung | pulmonary artery, 3 mg/kg, 2 h | – | recovered dose in apparatus | 8.7 ± 2.2%
O=C1CN(/N=C/c2ccc(-c3ccc([N+](=O)[O-])cc3)o2)C(O)=N1 | – | Sprague-Dawley rat, male, liver | oral, 1000 mg/kg, 6 h, single high dose | direction not given | hepatocyte vacuolization score | 0
CC1=C2C[C@H]3[C@@H](CC[C@@H]4C[C@H](NS(C)(=O)=O)CC[C@@]43C)[C@@H]2CC[C@@]2(C1)O[C@@H]1C[C@H](C)CN[C@H]1[C@H]2C | – | patients, plasma | oral, 20 mg daily, day 22, cycle 1 | – | AUC(0-24) | 180 ng·h/mL
Cc1cc(Nc2cc3ncccc3c(N[C@@H]3C[C@H]4CC[C@@H](C3)N4CCC#N)n2)n[nH]1 | – | beagle dog, male, plasma | oral, 30 mg/kg/day, last day of 13 weeks | – | Cmax | 82.7 ng/mL
COc1ccc(-c2cc(=O)c3c(OC)c(OC)c(OC)c(OC)c3o2)cc1 | – | C57BL/6 mouse, male, plasma | oral, 1% w/w in diet, 6 weeks, orange peel extract diet | relative to: content in orange peel | tissue to peel content ratio | 0.042%
COc1cc2c(cc1OC)CN(CCc1ccc(NC(=O)c3cccc4c(=O)c5cccc(OC)c5[nH]c34)cc1)CC2 | – | Solutol | 24 h, 37 °C | – | solubility | 850 ± 60 µg/mL (≈ 1510 µM)
Cc1ccc(NC(=O)c2ccc(CN3CCNCC3)cc2)cc1Nc1nccc(-c2cccnc2)n1 | – | human, plasma | 400 mg/day imatinib, day 14 of cycle 1, metabolite of imatinib, mean, together with: IL-2 6 MIU/day days 10-14 | – | volume of distribution | 532 L
CC(C)[C@H](NC(=O)[C@@H]1CCCN1C(=O)[C@H](CCCNC(=N)N)NC(=O)[C@H](CS)NC(=O)[C@H](Cc1c[nH]c2ccccc12)NC(=O)[C@H](CCCNC(=N)N)NC(=O)[C@@H](Cc1ccccc1)NC(=O)[C@H](Cc1c[nH]cn1)NC(=O)[C@H](CCC(=O)O)NC(=O)[C@H](CS)NC(=O)[C@H](CS)NC(=O)[C@H](CCCCN)NC(=O)[C@@H]1CC(=O)N[C@@H](CCCNC(=N)N)C(=O)N[C@@H]([C@@H](C)O)C(=O)N[C@@H](CC(=O)O)C(=O)N[C@H](Cc2ccc(O)cc2)C(=O)N1)C(N)=O [technetium-99m labelled] | – | C57 mouse, female, B16/F1 melanoma, bone | intravenous, 2 h, together with: NDP-MSH 10 µg co-injected | – | tissue uptake | 0.91 ± 0.59 %ID/g
Cc1[nH]c(=O)c(CNC(=O)c2ccc([N+](=O)[O-])nc2)c2c1CCCC2 | U-HPLC | 20% DMSO in water | – | – | kinetic solubility | 144 µg/mL (≈ 421 µM)
CN[C@H](CC(C)C)C(=O)N[C@H]1C(=O)N[C@@H](CC(N)=O)C(=O)N[C@H]2C(=O)N[C@H]3C(=O)N[C@H](C(=O)N[C@H](C(=O)O)c4cc(O)cc(O)c4-c4cc3ccc4O)[C@H](O)c3ccc(c(Cl)c3)Oc3cc2cc(c3O[C@@H]2O[C@H](CO)[C@@H](O)[C@H](O)[C@H]2O[C@H]2C[C@](C)(N)[C@H](O)[C@H](C)O2)Oc2ccc(cc2Cl)[C@H]1O | microdialysis | pig, Danish Landrace, subcutaneous adipose tissue | intravenous, 1000 mg over 100 min, 450 min dosing interval, together with: 2.0 µg/mL MIC | relative to: dosing interval | time above MIC | 96%
CN(C)C(=N)N=C(N)N | – | Sprague-Dawley rat, male, liver | oral, 100 mg/kg, 6 h, single low dose | direction not given | hepatocyte necrosis score | 0
CCCSc1nc(N[C@@H]2C[C@H]2c2ccc(F)c(F)c2)c2nnn([C@@H]3C[C@H](OCCO)[C@@H](O)[C@H]3O)c2n1 | – | Wistar Han rat, female, plasma | oral, 60 mg/kg/day, day 1, carcinogenicity study | – | AUC | 191 µM·h
CC1(C)C(/C=C/C2=C(Oc3ccc(S(=O)(=O)O)cc3)C(=C/C=C3/N(CCCCS(=O)(=O)O)c4ccc(S(=O)(=O)[O-])cc4C3(C)C)/CCC2)=[N+](CCCCCC(=O)O)c2ccc(S(=O)(=O)O)cc21 | shake-flask | 1-octanol/water | room temperature | – | logP | -1.13 ± 0.08
Cc1cc(Oc2cncnc2)cc(C(=O)Nc2ccc(F)cn2)n1 | – | Sprague-Dawley rat, male, plasma | oral, 10 mg/kg, 1 h | – | unbound plasma concentration | 318 nM

For quick reference, copied from above:
Compound | assay | system | conditions | how to read | measurement | result
COc1ccc(-c2cc(=O)c3c(OC)c(OC)c(OC)c(OC)c3o2)cc1 | – | C57BL/6 mouse, male, plasma | oral, 1% w/w in diet, 6 weeks, orange peel extract diet | relative to: content in orange peel | tissue to peel content ratio | 0.042%
CC[C@H](C)[C@@H]1NC(=O)[C@H](Cc2ccc(O)cc2)NC(=O)[C@@H](N)CSSC[C@@H](C(=O)N2CCC[C@H]2C(=O)N[C@@H](CC(C)C)C(=O)NCC(N)=O)NC(=O)[C@H](CC(N)=O)NC(=O)[C@H](CCC(N)=O)NC1=O | microdialysis, radioimmunoassay | knock-out male mice lacking compound, amygdala extracellular fluid | intraperitoneal, 12 µg total, incremental area over baseline | – | AUC above baseline | 89.1 ± 51.3 pg·30 min/sample
CC(C)[C@@H](CS(=O)(=O)C(C)C)N1C(=O)[C@@](C)(CC(=O)O)C[C@H](c2cccc(Cl)c2)[C@H]1c1ccc(Cl)cc1 | – | healthy human | oral, 60 mg single dose, new tablet, fed | – | AUC(0-24) | 1790 ng·h/mL
